Published values gathered from unrelated publications.
Each line is one published result; not all experiments were run side by side. Several values in a cell are separate wells, animals, samples, runs or records. ± gives the spread as reported.

| Compound | target | assay | system | conditions | how to read | measurement | result |
| --- | --- | --- | --- | --- | --- | --- | --- |
| O=S(=O)(NCCNC/C=C/c1ccc(Br)cc1)c1cccc2cnccc12 | PKA | inhibitor | mouse zygotes | 20 µM, injection, hCG, 24 h post, early embryonic development | – | embryos arrested at zygote stage | 100% |
| CC(=O)N(C)[C@H]1CCN(C(=O)c2cnc3c(c2)C[C@](C)(c2ccc(F)cc2)N3)C1 | vanin activity | refers to: creatinine-normalised pantetheine | human, urine | 60 mg, 144 h after first dose, median | reference: baseline | urinary pantetheine | 2680% |
| C[n+]1cccc2cc(C=NNC(=O)c3ccc4ccc5ccc(C(=O)NN=Cc6ccc7c(ccc[n+]7C)c6)nc5c4n3)ccc21.[I-].[I-] | telomeric antiparallel G-quadruplex DNA | UV melting | – | 3 µM, 10 mM potassium, together with: DNA 3 µM | – | delta Tm | 0.5 °C |
| C=C(C)Cn1c(SCC(=O)c2cccs2)nc2sc3c(c2c1=O)CCOC3 | Smoothened | Gli luciferase reporter, agonist | TM3-Gli-Luc | together with: SAG 20 nM | – | EC50 | > 20 µM |
| Cn1c(=O)oc2ccc(-c3ccc(C[C@@H](C#N)NC(=O)[C@@H]4CNCCCO4)cc3)cc21 | neutrophil elastase human | enzyme activity, PK-PD model | human, whole blood | oral, together with: zymosan | – | IC50 | 0.215 µM |
| CC[C@H](C)[C@H](NC(=O)[C@H](CC(=O)O)NC(=O)[C@H](CCC(=O)O)NC(=O)[C@@H](N)CC(N)=O)C(=O)N[C@@H](CC(=O)O)C(=O)N[C@@H](CCC(N)=O)C(=O)N[C@@H](CCSC)C(=O)N[C@@H](Cc1ccccc1)C(=O)N[C@@H](CO)C(=O)N[C@H](C(=O)N[C@@H](CC(C)C)C(=O)N[C@@H](CC(C)C)C(=O)NCC(=O)N[C@@H](CCC(=O)O)C(=O)N[C@@]1(C)CCCC=CCCC[C@@](C)(C(=O)N[C@@H](CCC(N)=O)C(=O)N[C@@H](CO)C(=O)O)NC(=O)[C@H](CC(C)C)NC(=O)[C@H](CC(C)C)NC(=O)[C@H](CC(=O)O)NC1=O)[C@@H](C)O | integrin αIIbβ3 THD-W359A | integrin activation, PAC-1 binding flow cytometry | CHO-A5 expressing αIIbβ3 THD-W359A | up to 100 µM, 30 min, 37 °C | – | inhibition | no inhibition |
| C[C@H](CCC(=O)O)[C@H]1CC[C@H]2[C@@H]3CC[C@@H]4C[C@H](O)CC[C@]4(C)[C@H]3C[C@H](O)[C@]12C | FXR | reporter gene, agonist, SHP luciferase reporter | Caco-2 | – | – | EC50 | 0.0034 µM |
| CC(C)C[C@@H]1NC(=O)[C@H](C)NC(=O)CNC(=O)[C@H](CC(N)=O)NC(=O)[C@@H]2CCCN2C(=O)[C@H](Cc2ccc(O)cc2)NC(=O)[C@H](CCCNC(=N)N)NC(=O)[C@H](Cc2ccccc2)NC(=O)[C@@H](NC(=O)[C@H](CCCCN)NC(=O)[C@@H]2CCCN2C(=O)[C@H](CO)NC(=O)[C@H](C)NC(=O)[C@@H](N)Cc2ccc(O)cc2)CSSC[C@@H](C(=O)N[C@H](C(N)=O)[C@@H](C)O)NC(=O)[C@H](C)NC1=O | fucoidan | binding, isothermal titration calorimetry | – | pH 7.0, 25 °C | – | -ΔG | 8.34 kcal/mol |
| CN(C)CCCn1c(=O)c2ccc3c(=O)n(CCCN(C)C)c(=O)c4c5[nH]c6cc(C(=O)O)ccc6[nH]c5c(c1=O)c2c34 | HIV-1 LTR-IV G-quadruplex | FRET melting | – | 0.25 µM, K+ 100 mM | – | ΔTm | 6.3 ± 0.6 °C |
| CC(=O)C1=C(C)N(c2cccc(C(F)(F)F)c2)C(=O)N[C@@H]1c1ccc(C#N)nc1 | chymotrypsin | – | – | – | – | IC50 | > 30 µM |
| O=C(NN=Cc1ccc(C[n+]2ccccc2)cc1)c1ccc2ccc3ccc(C(=O)NN=Cc4ccc(C[n+]5ccccc5)cc4)nc3c2n1.[Br-].[Br-] | MYC promoter parallel G-quadruplex DNA | UV melting | – | 3 µM, 10 mM potassium, together with: DNA 3 µM | – | delta Tm | 4.4 °C |
| Oc1ccccc1-c1n[nH]cc1-c1ccnc2ccccc12 | CDC5 (Candida albicans) | kinase binding, MIB/MS competition | Candida albicans lysate | 10 µM | reference: DMSO | log2 fold change | 0.09 |
| CCCCCCCC(=O)OC[C@H](COP(=O)(O)O[C@@H]1[C@H](O)[C@H](O)[C@@H](OP(=O)(O)O)[C@H](OP(=O)(O)O)[C@H]1O)OC(=O)CCCCCCC | Kv7.2/Kv7.3(EEE) mutant channel | channel open probability, activator, fitted PIP2 binding model | – | model 2 | reference: channel without bound PIP2 | efficacy factor E2 | 0.001 |
| CC(C)c1noc2ncc(C(=O)c3ccccc3O)cc12 | Kv7.1 potassium channel human | ion current, inhibitor, whole-cell patch clamp | – | 10 µM | – | inhibition | 21.5% and 13.1% and 14.8% and 17% and 15.5% |
| CN(C)CCCn1c(=O)c2cc(Br)c3c(=O)n(CCCN(C)C)c(=O)c4c5[nH]c6ccc([N+](=O)[O-])cc6[nH]c5c(c1=O)c2c34 | HIV-1 LTR-IV G-quadruplex | FRET melting | – | 0.25 µM, K+ 100 mM | – | ΔTm | 5 ± 0.1 °C |
| Cn1c(=O)c2[nH]cnc2n(C)c1=O | anti-cAMP antibody | binding, cAMP EIA, acetylated | – | – | – | EC50 | > 1000 µM |

| Compound | target | assay | system | conditions | how to read | measurement | result |
| --- | --- | --- | --- | --- | --- | --- | --- |
| C[N+](C)(C)CCCn1c(=O)c2cc(Br)c3c(=O)n(CCC[N+](C)(C)C)c(=O)c4c5[nH]c6ccccc6[nH]c5c(c1=O)c2c34.[I-].[I-] | HIV-1 LTR-IV G-quadruplex | FRET melting | – | 0.25 µM, K+ 100 mM | – | ΔTm | 11.7 ± 1.2 °C |
| C=C(C)Cn1c(SCC(=O)c2ccccn2)nc2sc3c(c2c1=O)CCCC3 | Smoothened | Gli luciferase reporter, agonist | TM3-Gli-Luc | together with: SAG 20 nM | – | EC50 | > 20 µM |
| c1coc(-c2n[nH]cc2-c2ccnc3ccccc23)c1 | HRK1 (Candida albicans) | kinase binding, MIB/MS competition | Candida albicans lysate | 10 µM | reference: DMSO | log2 fold change | -0.11 |
| O=c1c2ccccc2[se]n1-c1ccccc1 | human AA3 | – | – | 20 µM | – | inhibition | inhibited |
| CCCCCCOC(=O)[C@]1(O)C[C@@H]2O[C@@]1(C)n1c3ccccc3c3c4c(c5c6ccccc6n2c5c31)C(=O)NC4 | RXFP1 S704A | – | RXFP1 S704A-expressing cells | 1 µM, 30 min, PKA inhibited | – | cAMP response | no effect |
| COC(=O)CCc1ccc(C(=O)N/N=C/C(Br)=C/c2ccccc2)cc1 | human Hsp90α-p23 interaction | split luciferase reporter | HEK293T | 30 µM, 24 h | – | inhibition | 16% |
| CNS(=O)(=O)Nc1nccc(Cc2c(C)c3ccc(Oc4ncccn4)cc3oc2=O)c1F | RAF kinases | RAF-mediated MEK1 phosphorylation, TR-FRET | – | concentration not given | – | inhibition | inhibited |
| CN(C)CCCn1c(=O)c2ccc3c(=O)n(CCCN(C)C)c(=O)c4c5[nH]c6cc([N+](=O)[O-])ccc6[nH]c5c(c1=O)c2c34 | HIV-1 LTR-IV G-quadruplex | FRET melting | – | 0.25 µM, K+ 100 mM | – | ΔTm | 12 ± 1.7 °C |
| CC(C)Cn1c(=O)n(C)c(=O)c2[nH]cnc21 | anti-cAMP antibody | binding, cAMP EIA, acetylated | – | – | – | EC50 | > 1000 µM |
| CC(=O)N[C@H](C(=O)N1C[C@H](O)C[C@H]1C(=O)NCc1ccc(-c2scnc2C)cc1)C(C)(C)SCCCCCCNC(=O)C[C@@H]1N=C(c2ccc(Cl)cc2)c2c(sc(C)c2C)-n2c(C)nnc21 | AHNAK (human) | TMT proteomics | HeLa | 3 µM, 24 h | reference: DMSO | relative protein abundance | 1 |
| FC(F)(F)CN1CC(n2cc(Oc3ccn4nc(Cl)cc4n3)cn2)C1 | ELOVL1 | refers to: C26/C22 sphingomyelin ratio | patient fibroblasts | – | – | IC50 | ~0.05 µM |
| N[C@@H](Cc1c[nH]c2ccccc12)C(=O)O | tryptophan indole-lyase Fusobacterium varium | substrate, biochemical | – | – | – | kcat/Km | 7670 M⁻¹ s⁻¹ |
| CC(C)C[C@@H]1NC(=O)[C@H](C(C)C)NC(=O)CNC(=O)[C@H](CC(N)=O)NC(=O)[C@@H]2CCCN2C(=O)[C@H](Cc2ccc(O)cc2)NC(=O)[C@H](CCCNC(=N)N)NC(=O)[C@H](Cc2ccccc2)NC(=O)[C@@H](NC(=O)[C@H](CCCCN)NC(=O)[C@@H]2CCCN2C(=O)[C@H](C)NC(=O)[C@H](C)NC(=O)[C@@H](N)Cc2ccc(O)cc2)CSSC[C@@H](C(=O)N[C@H](C(N)=O)[C@@H](C)O)NC(=O)[C@H](C)NC1=O | fucoidan | binding, isothermal titration calorimetry | – | pH 7.0, 25 °C | – | -ΔG | 8.88 kcal/mol |
| CN(C)CCCn1c(=O)c2cc(Br)c3c(=O)n(CCCN(C)C)c(=O)c4c5[nH]c6ncccc6[nH]c5c(c1=O)c2c34 | HIV-1 LTR-IV G-quadruplex | FRET melting | – | 0.25 µM, K+ 100 mM | – | ΔTm | 3 ± 0.1 °C |
| C=C(C)Cn1c(SCC(=O)N2CCOCC2)nc2sc3c(c2c1=O)CCCC3 | Smoothened | Gli luciferase reporter, agonist | TM3-Gli-Luc | together with: SAG 20 nM | – | EC50 | > 20 µM |
| [H]/N=C(/N)N[C@H]1[C@H](O)[C@@H](O)[C@H](O[C@@H]2O[C@@H](C)[C@](O)(C=O)[C@H]2O[C@@H]2O[C@@H](CO)[C@H](O)[C@@H](O)[C@@H]2NC)[C@@H](N/C(N)=N\[H])[C@@H]1O | FLAG-tagged de novo protein S23 | small-molecule microarray screen | – | concentration not given | – | binding | no binding |

For quick reference, copied from above:
| Compound | target | assay | system | conditions | how to read | measurement | result |
| --- | --- | --- | --- | --- | --- | --- | --- |
| CC(C)C[C@@H]1NC(=O)[C@H](C(C)C)NC(=O)CNC(=O)[C@H](CC(N)=O)NC(=O)[C@@H]2CCCN2C(=O)[C@H](Cc2ccc(O)cc2)NC(=O)[C@H](CCCNC(=N)N)NC(=O)[C@H](Cc2ccccc2)NC(=O)[C@@H](NC(=O)[C@H](CCCCN)NC(=O)[C@@H]2CCCN2C(=O)[C@H](C)NC(=O)[C@H](C)NC(=O)[C@@H](N)Cc2ccc(O)cc2)CSSC[C@@H](C(=O)N[C@H](C(N)=O)[C@@H](C)O)NC(=O)[C@H](C)NC1=O | fucoidan | binding, isothermal titration calorimetry | – | pH 7.0, 25 °C | – | -ΔG | 8.88 kcal/mol |
| CN(C)CCCn1c(=O)c2cc(Br)c3c(=O)n(CCCN(C)C)c(=O)c4c5[nH]c6ncccc6[nH]c5c(c1=O)c2c34 | HIV-1 LTR-IV G-quadruplex | FRET melting | – | 0.25 µM, K+ 100 mM | – | ΔTm | 3 ± 0.1 °C |
